Results from different studies.
Every numbered part comes from another study and shows a few of its results, in no order.

Study 1 — technique: RNA Bind-n-Seq; molecule type: RNA; sample: in vitro; tested at: not given; relative to: input RNA pool; reading: higher = stronger binding
Target: RING finger protein unkempt homolog, zinc fingers 1-6, GST-SBP tag (UNK, Homo sapiens, UniProt Q9C0B0, residues 30-357)
Sequence of UniProt Q9C0B0 (30-357, looked up): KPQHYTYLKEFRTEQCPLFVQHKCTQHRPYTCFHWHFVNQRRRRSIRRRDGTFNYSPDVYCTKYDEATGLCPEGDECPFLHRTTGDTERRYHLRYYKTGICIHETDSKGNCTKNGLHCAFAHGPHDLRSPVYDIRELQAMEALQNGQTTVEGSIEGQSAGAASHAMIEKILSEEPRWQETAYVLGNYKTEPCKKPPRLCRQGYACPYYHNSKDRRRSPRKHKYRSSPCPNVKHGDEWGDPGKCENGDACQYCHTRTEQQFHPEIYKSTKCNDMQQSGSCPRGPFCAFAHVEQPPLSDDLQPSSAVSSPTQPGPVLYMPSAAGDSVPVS
Setting: RNA with constant flanks, human and mouse sites, ends assumed
Constant ends, left off below: GGGAGUUCUACAGUCCGACGAUC … CAACAGAGGAUUGAGCAUCA
Oligonucleotide	bound/input enrichment [ratio]
AUCCACAGUAUUGUUCUUGUAAAACUGUGACAUUCCACAGAGUUACUGCCACGGUCCUUUGAGUGUCAGGCUCUGAAUCUCUCAAAAUGUGCCGUCUUUGGUUCCUCAUGGCUGUUAUCU	0.116
GCAAAUUUUGCCAGAAAUGAUGCAAAUUGUAUUCAUAUGGUAGACAAUGGGAUUGUAGAAAAACUUAUGGAUUUACUGGACAGACAUGUAGAAGAUGGAAAUGUAACAGUACAGCAUGCA	0.582
AAGGACCCAGAAAAAGUGGCUCGGGUGAAAGCACUGUAUGAGGCGCUGGAUCUGCAGUCUGCUUUCUUCAAGUAUGAGGAAGACAGUUACAACCGCCUCAAGAGUCUCAUAGAGCAGUGC	0.228
AAGAUUUGGACCUUGGAGCUGAACCAGGGAGCUAGCAAAAGUAAAGCAGACUUAUAAAAUUAUAGCUAUGUGCAGCUGCACAACACAGUCCUUCCACUAGCAGCUGUGUUAAAGUAUUUA	4.1
GUCCAGCGUCCUCGGUGUUUUUUUGACAUUGCCAUUAAUAAUCAACCUGCUGGAAGAGUUGUCUUUGAAUUAUUUUCCGAUGUAUGUCCCAAAACGUGUGAGAACUUUCGCUGCCUUUGC	0.37
GUGUCUGGUGUGGGUUUCCCAAGCAAGGUUCCUUGGAAGAAGAUGUCUGCAGAGGAGCUGGAGAAUCAGUACUGUCCCAGCCGAUGGGUUGUCCGACUGGGAGCAGAGGAAGCCUUGAGG	0.157
ACUACCCACAAAGAAGAAAAGAGUUUACUAGAACUAGAAGUUGAUUUGGAUAACUUGGAAUUAGAGGAUAUUGACACAACAGACAUUAAUCUGGAUGAAGAUAUUCUGGAUGAUUAAAGU	0.735
CGCUAUCAACACUUCUUUGAGGCCUGCCGCCUCUUGCAGCAGAUGAUCGACAUUGCUAUUGAUGGUUUUCUUUUGACUCCAGUACAGAAGAUCUGCAAAUAUCCCUUACAAUUGGCCGAG	0.181
AAAAUAUAUAUAAAUUUACUUCACUGCUUUUUUUUUUUUUGGACAUAAGGGCUGUGUGUAUAUAGCCCCUGUUGGCCUCAAAACUCACAGUCCUCUCAUCAAGAGGUAGGAUUCUGGGCA	0.903
CUCUUAAAAACUGUACCAAUUAUCCAAAAUCAAAUGGAUGCACUUCUUGAUUUUAAUGUUAAUAGUAAUGAACUUACAAAUGGGGUAAUAAAUGCUGCCUUCAUGCUCCUCUUCAAAGAU	0.435
UACACAGCAACACAGCACACACCUACAAGCAUCACCUUAACUGUUAGAAGAACCAAACCCAAGAAGCGGAAAAAGAGUCCAGAAAAGGGUCGUGCAGCACCAAAGACGAAGAAGAUCAAG	0.502

Study 2 — technique: RNA Bind-n-Seq; molecule type: RNA; sample: in vitro; tested at: 200 nM; setting: whole 134-nt RNA, ends assumed; added: 150 mM LiCl; relative to: input library; reading: higher = stronger binding; library: 7-deaza-guanosine replaces G
Target: Fragile X messenger ribonucleoprotein 1, C-terminal low-complexity region (Fmr1, Mus musculus, UniProt P35922)
Constant ends, left off below: GGGAGUUCUACAGUCCGACGAUC … UGGAAUUCUCGGGUGUCAAGG
Oligonucleotide	log2 enrichment
CUGUGCUACACAUCGUAUGUACCGAAUCGGAAAAAAAGGGGAAAAAAAGGAAAAAAAGGGGAAAGUAUUAUGUUACGCCGUUCGGAUCUG	-0.0603
UCCUGUGCUACACAUCGUAUGUACCGAAUCGGGAAAAAAAGGGAAAAAGGGUUUUUGGGAAAGUAUUAUGUUACGCCGUUCGGAUCUGCA	-1.56
CACAGACAACACGCACCCACACAGACACAGAGAAAAGGGGUUGGGAUGGGGACAGGGUGCACAGCAGGGCGGGGUAGGACCCCAGCCCCU	0.454
UUCAUUCCUUGGAAGAAGCUGUACCAUCGAUACCUGAUGAAUGAAGAGCAAGCUGUCAGCAAAGUGGACGGCAUCCUGUCUAACUGUGGC	-2.73
UCAAGUCCUGUGCUACACAUCGUAUGUACCGAAUCGGUUUGGGUUUGGGUUUGGAAAGUAUUAUGUUACGCCGUUCGGAUCUGCACUUCC	-1.1
CACAGACAACACGCACCGACACAGACACAGAGGGAAGGGGUUGGGAUGGGGACAGGGUGCACAGCAGGGCGGGGUAGGACCCCAGCCCCU	1.03
CCUCAAGUCCUGUGCUACACAUCGUAUGUACCGAAUCGGGUGGGUGGGUGGGAAAGUAUUAUGUUACGCCGUUCGGAUCUGCACUUCCAG	-0.0517
AGUCCUGUGCUACACAUCGUAUGUACCGAAUCGGAAAAAGGAAAAAGGUUUUUUUGGAAAGUAUUAUGUUACGCCGUUCGGAUCUGCACU	-2.97
GCAGGAAGUAAAAACUAAUGGAAAUGCUUCGGAUAGUGGCAGGGGUGGGGGUUGCUAAGGAAAGGGUGGGAUGGGAGUGGGUAAAGAGUU	1.54
UCAAGUCCUGUGCUACACAUCGUAUGUACCGAAUCGGGGUUGGGGUUGGGGUUGGAAAGUAUUAUGUUACGCCGUUCGGAUCUGCACUUC	-1.27
CCUCAAGUCCUGUGCUACACAUCGUAUGUACCGAAUCGGGCGGGCGGGGCGGAAAGUAUUAUGUUACGCCGUUCGGAUCUGCACUUCCAG	-0.333

Study 3 — technique: RNA Bind-n-Seq; molecule type: RNA; sample: in vitro; tested at: 365 nM; relative to: no-protein control; reading: higher = stronger binding
Target: RNA binding protein fox-1 homolog 2, RRM domain, GST-SBP tag (RBFOX2, Homo sapiens, UniProt O43251-10, residues 100-194)
Setting: natural RNA segment, single round, ends assumed
Constant ends, left off below: GGGAGUUCUACAGUCCGACGAUC … UGGAAUUCUCGGGUGCCAA
Residues (chain): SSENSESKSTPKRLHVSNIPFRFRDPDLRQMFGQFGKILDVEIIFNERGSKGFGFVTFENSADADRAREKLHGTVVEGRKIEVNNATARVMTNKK
Oligonucleotide	RBNS enrichment (R)
UGGUUCUCUUGAGCUGGUGUCACUUUCUAACCUUUGCCAGUCUAGCCCCAGCAGGGCACCGUGUGUGUGAGUGUGGUUUGGUGCUGUUUUGGAGUGUGCCUGCCCCCCAG	0.617
CAAAAACAACAACAAAAUGAAACGCAACCACCACCAACCACUGCGACCACAAGAAGGAUGAUUCAACAGGUUUUCCUGAAGAAUUGAAAAACCAUUUUGCUGUCCCUUUU	0.509
AACUCCUGGAUGGUAACCAUCUCUGGAGUGCAGCGCUUGCUGCAGUGGAAAUGAUCAGGAAUACUGACCGUGUUUCUCUUGCCUCCGAGGUUCUUGGGCACACUCUAUAG	0.254
UGAUGGCUGGGGUCCCCCAUCUGCUAUGCGUACUUCACUGACCUAUAAACACUAAGAUGGGGUGCAAGGGCCCAGCCCCAGCUCCACAGCCCCCAUAUGCACCCACCCUG	0.916
AGUGACAGAGAUGCCUCAGCUCUAGGCUCCUGCCCUUGCUGCUCCCACCUUCCAAGCCAGUUGCAGAGCCCCUGCUAAGGACCGAGCCUGCUCACUCAUCUCAGCUCCAG	0.665
GAUUUUUGUGAUUAUAGUAAUAAAAUGAUAUUACUUGUGAAAUAUUAGUAAUAAAUUAUUUGAGUAUAUAAACACGUUAGGGAUCUUUUUUUAAUAGGAAAAAUACUUUC	0.731
AUCUUGGAGAAUAAAAAAGGACUUGGAAAACAAGUCUUAGUAGUCAUUCAGAGGACUCAAGUACUAGUGCUAGGUCUCUUUCCUUCCACUCUCUCUCUCUCUCUCUCUCU	0.389
UACAGCCCUUUGUACUUCAAAAUAUGUUUUUGUGUCCAUCAGUAUUAACUAUUGGUAUACUACUGGUUUUAUAUUUUUUUUUCUUUGAGACAACAGUACAUAUAAUAGAG	0.525
UAAAGCCCCCAUUCAUACAAACAAGCAGUAAACAGCCUACCCUGGAAAUACCCCUAGUCCCCAAAGUUCACUUCUAGCUGCAGGUAGACAAUGAGUAACUGGUCUACUGA	0.498
CAUUGUUAUUCAUUUUGUAAAAUACUAGUGUUUAUUUUCAUUUUUUGUAAAAUUUAAACAUCGUAUGCGCAUAAACAAAAAUGAACAAGAAUUAGGGGGAAAUAACAUUU	0.788
CUGGGCCUCCGCUCUUUAACUAUAUAAACAUUUAUCUGUAUAUCUAUGUCCCUGUCUGGGGGGCAGGAGGAAUCUGCCAAAGACCAACAGUCUUACUUUAUCUUACUAUA	0.463
ACAAAGGGUUCCAGGCUCCAGAGAGGAGAUCACCUCGACGCCAAUGUCACCGAGGCACCUGUCUCAGCUAGGACUCAGUUUCUCUUUCUGAGGUCGGCGUUAUUUCCUCU	0.206

Study 4 — technique: protein binding microarray; molecule type: double-stranded DNA, one strand shown; sample: in vitro; tested at: not given; relative to: not given; reading: higher = stronger binding
Target: Histone acetyltransferase KAT6A, both winged helices, GST fusion (KAT6A, Homo sapiens, UniProt Q92794, residues 1-181)
Setting: 8-mer, flanks averaged, mean of 2 arrays, mostly near background
Construct (chain): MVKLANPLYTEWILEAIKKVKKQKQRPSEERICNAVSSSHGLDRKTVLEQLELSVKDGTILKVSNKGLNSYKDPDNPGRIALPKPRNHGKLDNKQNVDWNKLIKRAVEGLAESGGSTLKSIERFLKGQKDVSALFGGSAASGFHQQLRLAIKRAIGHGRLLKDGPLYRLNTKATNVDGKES
Oligonucleotide	E-score
GAGAGAAA	-0.165
GGAAGGAA	-0.0855
ACCGAGTC	-0.0729
ATTCGCGC	0.32
CGGACCTA	0.0109
CATCAAGA	-0.102
AATCAGCG	0.104
ATAGGGTG	-0.187
AGGTAGAT	-0.13
ACAGGGCC	-0.00198
GTATCCAA	-0.038
GAAGGCTC	-0.142
GCCTCAAA	-0.0558
GACGGCCC	0.266
ATCACAGC	0.00154
GATAATCC	-0.106
CCATAAAA	0.0294
GCCTCTTA	-0.173
ATGATTCG	-0.0417
AAATGACT	-0.0854
ACCAGGAT	-0.121
AATCACGA	-0.00873
ATTGCCCA	-0.0998
CTACCTTA	-0.0995
GAGCAGCA	-0.0809

Repeated from above (study 1):
Oligonucleotide	bound/input enrichment [ratio]
CUCUUAAAAACUGUACCAAUUAUCCAAAAUCAAAUGGAUGCACUUCUUGAUUUUAAUGUUAAUAGUAAUGAACUUACAAAUGGGGUAAUAAAUGCUGCCUUCAUGCUCCUCUUCAAAGAU	0.435
AAGAUUUGGACCUUGGAGCUGAACCAGGGAGCUAGCAAAAGUAAAGCAGACUUAUAAAAUUAUAGCUAUGUGCAGCUGCACAACACAGUCCUUCCACUAGCAGCUGUGUUAAAGUAUUUA	4.1
AAGGACCCAGAAAAAGUGGCUCGGGUGAAAGCACUGUAUGAGGCGCUGGAUCUGCAGUCUGCUUUCUUCAAGUAUGAGGAAGACAGUUACAACCGCCUCAAGAGUCUCAUAGAGCAGUGC	0.228
GUGUCUGGUGUGGGUUUCCCAAGCAAGGUUCCUUGGAAGAAGAUGUCUGCAGAGGAGCUGGAGAAUCAGUACUGUCCCAGCCGAUGGGUUGUCCGACUGGGAGCAGAGGAAGCCUUGAGG	0.157
ACUACCCACAAAGAAGAAAAGAGUUUACUAGAACUAGAAGUUGAUUUGGAUAACUUGGAAUUAGAGGAUAUUGACACAACAGACAUUAAUCUGGAUGAAGAUAUUCUGGAUGAUUAAAGU	0.735
CGCUAUCAACACUUCUUUGAGGCCUGCCGCCUCUUGCAGCAGAUGAUCGACAUUGCUAUUGAUGGUUUUCUUUUGACUCCAGUACAGAAGAUCUGCAAAUAUCCCUUACAAUUGGCCGAG	0.181
GCAAAUUUUGCCAGAAAUGAUGCAAAUUGUAUUCAUAUGGUAGACAAUGGGAUUGUAGAAAAACUUAUGGAUUUACUGGACAGACAUGUAGAAGAUGGAAAUGUAACAGUACAGCAUGCA	0.582
